Results pooled from the literature.
A part holds a random share of what one study measured. Several values in a cell are separate wells, animals, samples, runs or records.
UniProt Q09013, sequence (whole entry, looked up): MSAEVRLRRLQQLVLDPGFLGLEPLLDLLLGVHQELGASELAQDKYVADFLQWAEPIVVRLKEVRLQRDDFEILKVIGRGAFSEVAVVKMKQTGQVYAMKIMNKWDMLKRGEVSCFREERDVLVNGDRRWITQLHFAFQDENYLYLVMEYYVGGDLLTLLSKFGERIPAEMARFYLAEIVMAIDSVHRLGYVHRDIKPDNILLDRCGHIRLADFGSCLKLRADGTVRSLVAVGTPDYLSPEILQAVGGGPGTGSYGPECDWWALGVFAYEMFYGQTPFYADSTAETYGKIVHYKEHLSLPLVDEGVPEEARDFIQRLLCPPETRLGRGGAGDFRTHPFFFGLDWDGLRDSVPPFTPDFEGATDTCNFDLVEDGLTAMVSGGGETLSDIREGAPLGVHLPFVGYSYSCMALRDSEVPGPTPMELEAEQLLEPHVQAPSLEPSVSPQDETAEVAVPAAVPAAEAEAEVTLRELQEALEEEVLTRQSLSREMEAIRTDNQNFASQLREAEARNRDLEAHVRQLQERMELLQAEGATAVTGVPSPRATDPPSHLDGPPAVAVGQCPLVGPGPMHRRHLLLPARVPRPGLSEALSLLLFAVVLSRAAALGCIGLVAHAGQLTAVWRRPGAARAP
UniProt Q16288, sequence (whole entry, looked up): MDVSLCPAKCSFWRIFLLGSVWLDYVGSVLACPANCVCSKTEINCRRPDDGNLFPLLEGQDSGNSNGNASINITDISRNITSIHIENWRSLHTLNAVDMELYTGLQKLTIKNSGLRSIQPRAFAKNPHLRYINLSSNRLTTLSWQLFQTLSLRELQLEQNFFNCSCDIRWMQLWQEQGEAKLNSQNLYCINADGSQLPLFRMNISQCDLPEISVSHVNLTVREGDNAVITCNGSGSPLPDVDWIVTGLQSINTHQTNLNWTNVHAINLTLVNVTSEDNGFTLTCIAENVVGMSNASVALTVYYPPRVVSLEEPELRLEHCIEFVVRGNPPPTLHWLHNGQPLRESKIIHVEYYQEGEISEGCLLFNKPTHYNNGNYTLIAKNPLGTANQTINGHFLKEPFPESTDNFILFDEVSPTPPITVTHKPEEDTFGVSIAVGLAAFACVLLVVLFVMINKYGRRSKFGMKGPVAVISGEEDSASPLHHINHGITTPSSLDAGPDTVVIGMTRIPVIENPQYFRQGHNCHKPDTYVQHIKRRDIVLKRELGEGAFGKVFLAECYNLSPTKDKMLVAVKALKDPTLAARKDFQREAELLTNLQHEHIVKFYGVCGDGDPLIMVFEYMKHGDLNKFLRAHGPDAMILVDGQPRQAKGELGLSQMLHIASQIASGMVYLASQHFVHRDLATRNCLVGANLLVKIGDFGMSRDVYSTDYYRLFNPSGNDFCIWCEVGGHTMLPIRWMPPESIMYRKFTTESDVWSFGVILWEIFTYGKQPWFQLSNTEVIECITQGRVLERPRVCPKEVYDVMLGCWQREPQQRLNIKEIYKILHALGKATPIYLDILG
UniProt O75116, sequence (whole entry, looked up): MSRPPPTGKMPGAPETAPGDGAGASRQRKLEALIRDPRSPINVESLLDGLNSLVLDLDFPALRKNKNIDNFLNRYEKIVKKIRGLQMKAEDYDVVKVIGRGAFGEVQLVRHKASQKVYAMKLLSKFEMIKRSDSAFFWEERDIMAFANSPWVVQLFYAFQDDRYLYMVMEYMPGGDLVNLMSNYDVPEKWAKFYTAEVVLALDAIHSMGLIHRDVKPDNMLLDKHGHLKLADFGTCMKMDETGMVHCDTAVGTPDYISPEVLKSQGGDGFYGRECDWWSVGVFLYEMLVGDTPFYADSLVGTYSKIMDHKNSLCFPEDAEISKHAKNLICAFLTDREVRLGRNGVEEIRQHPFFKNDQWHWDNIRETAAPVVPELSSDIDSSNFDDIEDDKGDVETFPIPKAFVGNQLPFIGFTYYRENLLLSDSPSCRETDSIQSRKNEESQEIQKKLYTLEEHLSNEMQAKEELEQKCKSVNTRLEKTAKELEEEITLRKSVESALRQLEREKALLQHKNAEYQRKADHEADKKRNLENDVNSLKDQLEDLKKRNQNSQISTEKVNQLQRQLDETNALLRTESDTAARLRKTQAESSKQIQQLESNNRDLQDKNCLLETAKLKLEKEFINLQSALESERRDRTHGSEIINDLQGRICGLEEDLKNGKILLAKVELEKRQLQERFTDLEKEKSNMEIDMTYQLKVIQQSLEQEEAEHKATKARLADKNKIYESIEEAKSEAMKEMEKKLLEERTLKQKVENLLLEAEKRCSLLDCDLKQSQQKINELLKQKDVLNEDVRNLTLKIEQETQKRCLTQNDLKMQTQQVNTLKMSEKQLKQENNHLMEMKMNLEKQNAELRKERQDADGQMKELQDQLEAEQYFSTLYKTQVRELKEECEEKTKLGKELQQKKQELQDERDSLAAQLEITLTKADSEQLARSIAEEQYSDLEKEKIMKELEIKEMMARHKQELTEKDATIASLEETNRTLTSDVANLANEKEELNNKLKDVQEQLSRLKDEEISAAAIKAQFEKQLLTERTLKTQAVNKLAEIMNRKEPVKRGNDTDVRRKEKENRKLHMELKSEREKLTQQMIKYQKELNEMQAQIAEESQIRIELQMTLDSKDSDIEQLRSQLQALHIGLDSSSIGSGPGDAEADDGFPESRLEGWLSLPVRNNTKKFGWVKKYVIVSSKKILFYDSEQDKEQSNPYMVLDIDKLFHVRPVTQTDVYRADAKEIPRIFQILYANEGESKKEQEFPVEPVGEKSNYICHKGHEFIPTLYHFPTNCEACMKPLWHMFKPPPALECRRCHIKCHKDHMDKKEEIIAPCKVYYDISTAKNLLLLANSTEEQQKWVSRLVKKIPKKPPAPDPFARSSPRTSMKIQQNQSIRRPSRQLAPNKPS
UniProt P53779, sequence (whole entry, looked up): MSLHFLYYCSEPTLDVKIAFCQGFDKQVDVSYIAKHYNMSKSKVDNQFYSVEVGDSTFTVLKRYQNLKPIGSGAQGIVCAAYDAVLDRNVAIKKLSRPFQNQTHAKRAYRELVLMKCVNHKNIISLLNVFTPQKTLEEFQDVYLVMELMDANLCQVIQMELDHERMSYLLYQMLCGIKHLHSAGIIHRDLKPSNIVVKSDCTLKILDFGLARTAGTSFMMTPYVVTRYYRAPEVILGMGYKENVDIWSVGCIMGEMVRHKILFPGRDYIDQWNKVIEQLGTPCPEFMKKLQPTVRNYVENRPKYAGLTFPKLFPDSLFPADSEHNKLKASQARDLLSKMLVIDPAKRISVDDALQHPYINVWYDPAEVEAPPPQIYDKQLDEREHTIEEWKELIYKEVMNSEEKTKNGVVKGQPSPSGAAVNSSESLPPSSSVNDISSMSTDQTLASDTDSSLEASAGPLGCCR
UniProt P50613, sequence (whole entry, looked up): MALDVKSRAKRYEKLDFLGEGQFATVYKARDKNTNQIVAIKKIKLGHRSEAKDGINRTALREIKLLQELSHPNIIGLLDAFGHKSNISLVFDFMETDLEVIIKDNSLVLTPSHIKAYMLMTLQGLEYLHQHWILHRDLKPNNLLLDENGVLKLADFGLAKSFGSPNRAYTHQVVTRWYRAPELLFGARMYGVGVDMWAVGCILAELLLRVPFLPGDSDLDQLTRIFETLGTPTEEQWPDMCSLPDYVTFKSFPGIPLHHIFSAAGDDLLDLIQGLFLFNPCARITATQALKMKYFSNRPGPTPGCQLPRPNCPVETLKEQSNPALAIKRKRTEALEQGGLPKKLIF

Block 1 — species: mouse; matrix: microsomes or S9; tested at: 2 µM; time: 0.5 h
| Structure (SMILES) | remaining compound [%] |
| --- | --- |
| CC(C)NC(=O)CN1C(=O)c2ccccc2N2C(=O)c3ccccc3C12 (stereo not drawn) | 79.2 |
| c1nc(N2CCN(C3CCCCC3)CC2)c2nc[nH]c2n1 | 25.4 |
| COc1cc(OC)c(C(=O)Nc2sc(C(C)C)cc2C(=O)OC(C)C)cc1OC | 78.5 |
| Cc1ccccc1-c1nc2ccccc2cc1Cn1nc(N2CCC(O)CC2)c2c(N)ncnc21 | 30.8 |
| Cc1cc(CC(C)n2ccnc2-c2ccc(C)o2)[nH]n1 (stereo not drawn) | 8.97 |
| Cc1c(CC(=O)N2CCN(C(=O)C3COc4ccccc4O3)CC2)c(=O)oc2cc(O)c(Cl)cc12 (stereo not drawn) | 43.8 |
| O=C(NCc1ccc(F)cc1)N1Cc2c(sc3c2CCCC3)-n2cccc2C1c1cccs1 (stereo not drawn) | 16.7 |
| O=C(Cn1nnc(-c2ccc(F)cc2)n1)N[C@H]1C[C@@H]2OCC[C@H]12 | 70.2 |
| CCOC(=O)c1c(C)nn(-c2ncnc3c2c(C)c(C)n3CCc2ccccc2)c1N | 88.6 |

Block 2 — matrix: hydrocarbon/water
| Compound | logD |
| --- | --- |
| CC[C@H]1NC(=O)[C@H](CC(C)C)NC(=O)[C@H](Cc2ccccc2)NC(=O)[C@H]2CCCN2C(=O)[C@H](CC2CCCCC2)NC(=O)[C@H](CC2CCCCC2)NC1=O | 2.54 |
| CC[C@@H]1C(=O)N(C)[C@@H](CC(C)C)C(=O)N[C@@H](CC(C)C)C(=O)N2CCC[C@@H]2C(=O)N(C)[C@@H](Cc2ccccc2)C(=O)N[C@@H](CC(C)C)C(=O)N1C | 2.73 |
| CCC[C@@H]1C(=O)N(C)[C@@H](CC2CCCCC2)C(=O)N[C@@H](CC2CCCCC2)C(=O)N2CCC[C@@H]2C(=O)N(C)[C@@H](Cc2ccc(O)cc2)C(=O)N[C@@H](CC(C)C)C(=O)N1C | 3.22 |
| CC(C)C[C@@H]1NC(=O)[C@H](Cc2ccccc2)N(C)C(=O)[C@H]2CCCN2C(=O)[C@H](CC(C)C)NC(=O)[C@H](C)N(C)C(=O)[C@@H](CC(C)C)N(C)C1=O | 2.32 |
| CCC[C@@H]1NC(=O)CN(CCC)C(=O)[C@H](CC(C)C)NC(=O)CSC[C@@H](C(=O)OCC)N(C)C(=O)[C@H](CC(C)C)NC(=O)[C@H](C)N(C)C(=O)[C@H](CC2CCCCC2)NC(=O)[C@H](C)N(C)C(=O)[C@H]2CCCN2C1=O | 2.79 |
| CCC[C@@H]1NC(=O)[C@H](C)N(C)C(=O)[C@H](CC(C)C)NC(=O)Cn2cc(nn2)CN(C)C(=O)[C@H](CC(C)C)NC(=O)[C@H](C)N(C)C(=O)[C@H](CC(C)C)NC(=O)[C@H](CC)N(C)C(=O)[C@H]2CCCN2C1=O | -0.516 |
| CC[C@@H]1C(=O)N(C)[C@@H](CC)C(=O)N[C@@H](CC(C)C)C(=O)N2CCC[C@@H]2C(=O)N(C)[C@@H](Cc2ccccc2)C(=O)N[C@@H](CC(C)C)C(=O)N1C | 2.11 |
| CCCCCN1CC(=O)N[C@@H](Cc2ccccc2)C(=O)N2CCC[C@@H]2C(=O)N(C)[C@@H](CC(C)C)C(=O)N[C@@H](C)C(=O)N(Cc2ccc3c(c2)OCO3)CC(=O)N[C@@H](CC(C)C)C(=O)N2CCC[C@@H]2C(=O)N(C)[C@@H](CC(C)C)C(=O)N[C@@H](C)C1=O | 3.06 |
| CCCN1CC(=O)N[C@@H](CC2CCCCC2)C(=O)N(C)[C@@H](C)C(=O)N[C@@H](CC(C)C)C(=O)N(C)Cc2cn(nn2)CC(=O)N[C@@H](CC(C)C)C(=O)N(C)[C@@H](C)C(=O)N[C@@H](CC2CCCCC2)C(=O)N2CCC[C@@H]2C1=O | 2 |
| CCN1CC(=O)N[C@@H](CC(C)C)C(=O)N2CCC[C@@H]2C(=O)N(C)[C@@H](CC(C)C)C(=O)N[C@@H](C)C(=O)N(CC2CCCCC2)CC(=O)N[C@@H](C)C(=O)N2CCC[C@@H]2C(=O)N(C)[C@@H](CC(C)C)C(=O)N[C@@H](C)C1=O | 1.75 |
| CC(C)C[C@@H]1NC(=O)[C@H](C)N(C)C(=O)[C@H](CC2CCCCC2)NC(=O)CN(CC(C)C)C(=O)[C@H]2CCCN2C(=O)[C@H](CC2CCCCC2)NC(=O)[C@H](C)N(C)C(=O)[C@H](CC(C)C)NC(=O)Cn2cc(nn2)CN(C)C1=O | 2.36 |

Block 3 — observed: enzyme activity; action: inhibitor; tested at: 0.5 µM; reference: control
SMILES: CCCC(=O)Oc1ccc2[nH]c(C(=O)c3cc4ccccc4[nH]3)cc2c1
| target | remaining activity [%] |
| --- | --- |
| G protein-coupled receptor kinase 5 (GRK5, Homo sapiens, UniProt P34947) | 100 |
| NT-3 growth factor receptor (NTRK3, Homo sapiens, UniProt Q16288) | 95.9 |
| Mitogen-activated protein kinase 10 (MAPK10, Homo sapiens, UniProt P53779) | 100 |
| Myotonin-protein kinase (DMPK, Homo sapiens, UniProt Q09013) | 94.4 |
| Cyclin-dependent kinase 7 (CDK7, Homo sapiens, UniProt P50613) | 98.7 |
| Aurora kinase A (AURKA, Homo sapiens, UniProt O14965) | 94.6 |
| Rho-associated protein kinase 2 (ROCK2, Homo sapiens, UniProt O75116) | 103 |
| Protein-tyrosine kinase 2-beta (PTK2B, Homo sapiens, UniProt Q14289) | 87.6 |
| Epidermal growth factor receptor (EGFR, Homo sapiens, UniProt P00533) | 95.2 |
| Mitogen-activated protein kinase kinase kinase 2 (MAP3K2, Homo sapiens, UniProt Q9Y2U5) | 81.7 |
| Homeodomain-interacting protein kinase 3 (HIPK3, Homo sapiens, UniProt Q9H422) | 94.7 |
| Cyclin-dependent kinase 2, with cyclin A (CDK2, Homo sapiens, UniProt P24941) | 88.9 |

Mixed results
| Compound | cell line | test | setting | quantity | value |
| --- | --- | --- | --- | --- | --- |
| Cn1cncc1[C@@](O)(COc1ccc(C#N)cc1-c1ccc(OC(F)(F)F)cc1)c1ccc(C#N)cc1 | HEK293T | high-content imaging | 10 µM, 12 h | cells with altered mitochondria | 30.5% and 28.1% |

Some of these lines once more (block 3):
| target | remaining activity [%] |
| --- | --- |
| Mitogen-activated protein kinase kinase kinase 2 (MAP3K2, Homo sapiens, UniProt Q9Y2U5) | 81.7 |
| NT-3 growth factor receptor (NTRK3, Homo sapiens, UniProt Q16288) | 95.9 |
| G protein-coupled receptor kinase 5 (GRK5, Homo sapiens, UniProt P34947) | 100 |
